{"data": "Assay results gathered from unrelated publications", "note": "Compare with care: the assays were run in different laboratories. ± marks the error that the study gave."}
{"SMILES": "NC(=O)c1cnc2[nH]ccc2c1N[C@@H]1[C@@H]2CC3C[C@H]1C[C@@](O)(C3)C2", "system": "healthy Caucasian men, plasma", "conditions": "oral, 20 mg, single dose fasted median", "Tmax [h]": 1}
{"SMILES": "CC(C)=CCC[C@](C)(O[C@@H]1O[C@H](CO)[C@@H](O)[C@H](O)[C@H]1O)[C@H]1CC[C@]2(C)[C@@H]1[C@H](O)C[C@@H]1[C@@]3(C)CC[C@H](O[C@@H]4O[C@H](CO)[C@@H](O)[C@H](O)[C@H]4O)C(C)(C)[C@@H]3CC[C@]12C", "assay": "LC-MS/MS", "system": "healthy female volunteers, serum", "conditions": "oral, 3 g red ginseng", "Tmax [h]": "12.8 ± 4.5"}
{"SMILES": "Cc1ccc(NC(=O)c2ccc(CN3CCN(C)CC3)cc2)cc1Nc1nccc(-c2cncc(-c3oncc3C)c2)n1", "system": "healthy volunteers, plasma", "conditions": "oral, 200 mg once daily, day 1, 7-day dosing, mean", "Tmax [h]": 4}
{"SMILES": "O=C1CCc2ccc(OCCCCN3CCN(c4cccc(Cl)c4Cl)CC3)cc2N1", "system": "healthy Japanese men, CYP2D6 EM, plasma", "conditions": "oral, 3 mg aripiprazole single", "Tmax [h]": "2.7 ± 1.4"}
{"SMILES": "Cc1nc(-c2ccc(OCC(C)C)c(C#N)c2)sc1C(=O)O", "system": "healthy men, plasma", "conditions": "oral, 40 mg once daily, day 14, median, added: verinurad 10 mg", "Tmax [h]": 2}
{"SMILES": "CCOc1cc([C@@H](CS(C)(=O)=O)N2C(=O)c3cccc(NC(C)=O)c3C2=O)ccc1O[C@@H]1O[C@H](C(=O)O)[C@@H](O)[C@H](O)[C@H]1O", "system": "mild renal impairment patients, plasma", "conditions": "oral, 30 mg of apremilast", "Tmax [h]": 5}
{"SMILES": "C[C@]12C=CC(=O)C=C1CC[C@@H]1[C@@H]2[C@@H](O)C[C@@]2(C)[C@H]1C[C@H]1O[C@@H](C3CCCCC3)O[C@]12C(=O)CO", "system": "children with asthma, serum", "conditions": "inhaled, 160 µg ciclesonide, day 7, HFA-MDI without spacer", "Tmax [h]": "0.73 ± 0.054"}
{"SMILES": "CCc1cc2c(cc1N1CCC(N3CCOCC3)CC1)C(C)(C)c1[nH]c3cc(C#N)ccc3c1C2=O", "system": "severe hepatic impairment patients, plasma, total", "conditions": "oral, 300 mg single dose, fed, median", "Tmax [h]": 7}
{"SMILES": "CNC(=O)c1ccccc1Sc1ccc2c(/C=C/c3ccccn3)n[nH]c2c1", "system": "children and adolescents, refractory solid tumours, plasma", "conditions": "oral, dose not given", "Tmax [h]": "~2"}
{"SMILES": "CC(C)=CCC[C@](C)(O[C@@H]1O[C@H](CO)[C@@H](O)[C@H](O)[C@H]1O)[C@H]1CC[C@]2(C)[C@@H]1[C@H](O)C[C@@H]1[C@@]3(C)CC[C@H](O[C@@H]4O[C@H](CO)[C@@H](O)[C@H](O)[C@H]4O[C@@H]4O[C@H](CO)[C@@H](O)[C@H](O)[C@H]4O)C(C)(C)[C@@H]3CC[C@]12C", "assay": "LC-MS/MS", "system": "healthy male volunteers, serum", "conditions": "oral, 3 g red ginseng", "Tmax [h]": "6.67 ± 4.55"}
{"SMILES": "Cc1cc(-c2ccn3c(-c4ccc(CC(=O)Nc5cccc(C(F)(F)F)c5)c(F)c4)cnc3c2)ccn1", "system": "human, plasma", "conditions": "oral, 50 mg multiple doses, added: drug interaction probe cocktail", "Tmax [h]": 0}
{"SMILES": "CC1=C2C[C@H]3[C@@H](CC[C@@H]4C[C@H](NS(C)(=O)=O)CC[C@@]43C)[C@@H]2CC[C@@]2(C1)O[C@@H]1C[C@H](C)CN[C@H]1[C@H]2C", "system": "patients, plasma", "conditions": "oral, 160 mg daily, day 22, cycle 1", "Tmax [h]": 4.99}
{"SMILES": "CC#CC(=O)N1CCC[C@H]1c1nc(-c2ccc(C(=O)Nc3ccccn3)cc2)c2c(N)nccn12", "system": "Japanese patients, plasma", "conditions": "oral, 100 mg twice daily, day 8, fasting, multiple dose, median", "Tmax [h]": 0.615}
{"SMILES": "CN1C(=O)[C@@H](NC(=O)c2nnc(Cc3ccccc3)[nH]2)COc2ccccc21", "system": "healthy men, plasma", "conditions": "oral, 20 mg once daily, day 1, median", "Tmax [h]": 2}
{"SMILES": "C[C@H]1Oc2cc(cnc2N)-c2c(nn(C)c2C#N)CN(C)C(=O)c2ccc(F)cc21", "system": "healthy adults", "conditions": "oral, 100 mg single dose, fasted, median", "Tmax [h]": "≤ 2"}
{"SMILES": "C[C@@H](O)[C@H]1C(=O)N2C(C(=O)O)=C(S[C@@H]3CN[C@H](C(=O)N(C)C)C3)[C@H](C)[C@H]12", "system": "Danish Landrace pig, plasma", "conditions": "intravenous infusion, 1000 mg over 10 min, added: vancomycin", "Tmax [h]": 0.25}
{"SMILES": "CC(=O)Nc1ccc(O[C@@H]2O[C@H](C(=O)O)[C@@H](O)[C@H](O)[C@H]2O)cc1", "system": "healthy volunteers, both sexes, plasma", "conditions": "oral, 650 mg acetaminophen, day 2, added: favipiravir, acute", "Tmax [h]": 2.2}
{"SMILES": "CC(C(=O)O)c1ccc(-c2ccccc2)c(F)c1 (centres unmarked)", "system": "rabbit, male, plasma", "conditions": "oral, 2.58 mg/kg, single dose", "Tmax [h]": 1}
{"SMILES": "COc1cc(OC)c(/C=C/S(=O)(=O)Cc2ccc(OC)c(NCC(=O)O)c2)c(OC)c1", "system": "cancer patients, phase I, plasma", "conditions": "oral, 700 mg twice daily, day 1 cycle 1", "Tmax [h]": "1.14 ± 0.48"}
{"SMILES": "CN[C@H](CC(C)C)C(=O)N[C@H]1C(=O)N[C@@H](CC(N)=O)C(=O)N[C@H]2C(=O)N[C@H]3C(=O)N[C@H](C(=O)N[C@H](C(=O)O)c4cc(O)cc(O)c4-c4cc3ccc4O)[C@H](O)c3ccc(c(Cl)c3)Oc3cc2cc(c3O[C@@H]2O[C@H](CO)[C@@H](O)[C@H](O)[C@H]2O[C@H]2C[C@](C)(N)[C@H](O)[C@H](C)O2)Oc2ccc(cc2Cl)[C@H]1O", "system": "pig (Danish Landrace), plasma", "conditions": "iv infusion, 1000 mg over 100 min, added: meropenem co-administered", "Tmax [h]": 1.53}
{"SMILES": "CC(C)(C)c1nc(-c2cccc(NS(=O)(=O)c3c(F)cccc3F)c2F)c(-c2ccnc(N)n2)s1", "system": "Japanese patients, plasma", "conditions": "oral, 150 mg twice daily, repeat dosing, median, added: trametinib 2 mg once daily", "Tmax [h]": "~2"}
{"SMILES": "CS(=O)(=O)n1cc2c(n1)CN([C@H]1CO[C@H](c3cc(F)ccc3F)[C@@H](N)C1)C2", "system": "healthy Japanese men, plasma", "conditions": "oral, 1 mg once weekly, day 1", "Tmax [h]": 2}
{"SMILES": "CO/N=C1\\C[C@]2(C[C@@H]3C[C@@H](C/C=C(\\C)C[C@@H](C)/C=C/C=C4\\CO[C@@H]5[C@H](O)C(C)=C[C@@H](C(=O)O3)[C@]45O)O2)O[C@H](/C(C)=C/C(C)C)[C@H]1C", "assay": "HPLC, non-compartmental", "system": "Corriedale lambs, parasitized, plasma", "conditions": "subcutaneous, 0.2 mg/kg", "Tmax [h]": "11.3 ± 3.84"}
{"SMILES": "COc1c(N2C[C@@H]3CCCN[C@@H]3C2)c(F)cc2c(=O)c(C(=O)O)cn(C3CC3)c12", "assay": "HPLC-MS/MS", "system": "healthy adults, plasma", "conditions": "oral, 400 mg", "Tmax [h]": 2.4}
{"SMILES": "Cc1ccc(Sc2ccccc2N2CCNCC2)c(C)c1", "system": "healthy men, plasma", "conditions": "oral, 5 mg once daily, fed, day 12", "Tmax [h]": 8.3}
{"SMILES": "COc1ccc2c3c1O[C@H]1C[C@@H](OC(=O)c4ccccc4)C=C[C@@]31CCN(C)C2", "system": "healthy young men, plasma", "conditions": "intranasal, 5.5 mg, single dose", "Tmax [h]": 0.29}
{"SMILES": "CC(C(=O)O)c1ccc(-c2ccccc2)c(F)c1 (centres unmarked)", "system": "healthy volunteers, plasma", "conditions": "oral, 100 mg, median, added: control beverage 250 mL", "Tmax [h]": 1.75}
{"SMILES": "CO[C@H]1C[C@@H]2CC[C@@H](C)[C@@](O)(O2)C(=O)C(=O)N2CCCC[C@H]2C(=O)O[C@H]([C@H](C)C[C@@H]2CC[C@@H](OP(C)(C)=O)[C@H](OC)C2)CC(=O)[C@H](C)/C=C(\\C)[C@@H](O)[C@@H](OC)C(=O)[C@H](C)C[C@H](C)/C=C/C=C/C=C/1C", "assay": "HPLC-MS/MS", "system": "Japanese patients, whole blood", "conditions": "oral, 40 mg, day 26, cycle 1, median", "Tmax [h]": 4.04}
{"SMILES": "CCOc1ccc(Cc2cc([C@@H]3S[C@H](CO)[C@@H](O)[C@H](O)[C@H]3O)c(OC)cc2C)cc1", "system": "Japanese type 2 diabetes patients, plasma", "conditions": "oral, 5 mg single dose, eGFR 30-44 mL/min/1.73 m^2, median", "Tmax [h]": 0.5}
{"SMILES": "COc1cc2c(cc1OC)CN(CCc1ccc(NC(=O)c3cc(OC)c(OC)cc3NC(=O)c3cnc4ccccc4c3)cc1)CC2", "system": "human, plasma", "conditions": "intravenous infusion, 4 mg/kg", "Tmax [h]": 1.29}
{"SMILES": "CC(C)(Sc1ccncc1-c1ccc(C#N)c2ccccc12)C(=O)O", "system": "male, plasma", "conditions": "oral, 15 mg, severe renal impairment, fasted", "Tmax [h]": 2}
{"SMILES": "Nc1ncc(-c2cnn(CCO)c2)c2scc(-c3ccc(NC(=O)Nc4cccc(F)c4)cc3)c12", "system": "patients, plasma", "conditions": "oral, 480 mg twice weekly, day 15", "Tmax [h]": "9.9 ± 11.9"}
{"SMILES": "CN1CC[C@@H](NC(=O)Nc2ccc(C#N)cc2)C[C@@H]1c1nc2ccccc2[nH]1", "system": "Japanese patients", "conditions": "oral, 25 mg once daily, cycle 1 day 21, median", "Tmax [h]": 4}
{"SMILES": "N[C@]1(C(=O)O)[C@H]2[C@@H](C[C@@H]1F)[C@@H]2C(=O)O", "system": "healthy subjects, both sexes, CSF", "conditions": "oral, 10 mg TS-134 single dose, fed, median", "Tmax [h]": 8}
{"SMILES": "NS(=O)(=O)c1cc(Cl)c(Cl)c(S(N)(=O)=O)c1", "system": "healthy volunteers, plasma", "conditions": "oral, 200 mg, single dose, median", "Tmax [h]": 2}
{"note": "A few entries again:"}
{"SMILES": "C[C@]12C=CC(=O)C=C1CC[C@@H]1[C@@H]2[C@@H](O)C[C@@]2(C)[C@H]1C[C@H]1O[C@@H](C3CCCCC3)O[C@]12C(=O)CO", "system": "children with asthma, serum", "conditions": "inhaled, 160 µg ciclesonide, day 7, HFA-MDI without spacer", "Tmax [h]": "0.73 ± 0.054"}
{"SMILES": "CO[C@H]1C[C@@H]2CC[C@@H](C)[C@@](O)(O2)C(=O)C(=O)N2CCCC[C@H]2C(=O)O[C@H]([C@H](C)C[C@@H]2CC[C@@H](OP(C)(C)=O)[C@H](OC)C2)CC(=O)[C@H](C)/C=C(\\C)[C@@H](O)[C@@H](OC)C(=O)[C@H](C)C[C@H](C)/C=C/C=C/C=C/1C", "assay": "HPLC-MS/MS", "system": "Japanese patients, whole blood", "conditions": "oral, 40 mg, day 26, cycle 1, median", "Tmax [h]": 4.04}
{"SMILES": "CS(=O)(=O)n1cc2c(n1)CN([C@H]1CO[C@H](c3cc(F)ccc3F)[C@@H](N)C1)C2", "system": "healthy Japanese men, plasma", "conditions": "oral, 1 mg once weekly, day 1", "Tmax [h]": 2}
{"SMILES": "Cc1ccc(Sc2ccccc2N2CCNCC2)c(C)c1", "system": "healthy men, plasma", "conditions": "oral, 5 mg once daily, fed, day 12", "Tmax [h]": 8.3}
{"SMILES": "CC(C)=CCC[C@](C)(O[C@@H]1O[C@H](CO)[C@@H](O)[C@H](O)[C@H]1O)[C@H]1CC[C@]2(C)[C@@H]1[C@H](O)C[C@@H]1[C@@]3(C)CC[C@H](O[C@@H]4O[C@H](CO)[C@@H](O)[C@H](O)[C@H]4O)C(C)(C)[C@@H]3CC[C@]12C", "assay": "LC-MS/MS", "system": "healthy female volunteers, serum", "conditions": "oral, 3 g red ginseng", "Tmax [h]": "12.8 ± 4.5"}
